# Measured values from different studies.
# Numbered parts are unrelated; each lists some results of a single study.
# UniProt P36897, sequence (whole entry, looked up): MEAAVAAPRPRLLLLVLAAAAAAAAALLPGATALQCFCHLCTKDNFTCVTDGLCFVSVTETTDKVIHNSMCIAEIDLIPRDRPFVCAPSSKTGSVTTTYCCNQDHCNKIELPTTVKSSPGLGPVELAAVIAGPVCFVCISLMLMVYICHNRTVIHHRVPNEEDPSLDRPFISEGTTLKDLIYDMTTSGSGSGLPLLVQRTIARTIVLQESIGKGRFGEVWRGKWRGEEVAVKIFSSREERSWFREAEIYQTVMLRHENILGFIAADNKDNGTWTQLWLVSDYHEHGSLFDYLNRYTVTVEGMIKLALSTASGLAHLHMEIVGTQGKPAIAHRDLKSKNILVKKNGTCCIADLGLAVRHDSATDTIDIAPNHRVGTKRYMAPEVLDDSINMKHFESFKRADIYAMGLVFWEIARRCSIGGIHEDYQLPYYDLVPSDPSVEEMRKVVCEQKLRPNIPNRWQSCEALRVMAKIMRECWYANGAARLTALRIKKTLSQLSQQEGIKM
# UniProt P23443, sequence (whole entry, looked up): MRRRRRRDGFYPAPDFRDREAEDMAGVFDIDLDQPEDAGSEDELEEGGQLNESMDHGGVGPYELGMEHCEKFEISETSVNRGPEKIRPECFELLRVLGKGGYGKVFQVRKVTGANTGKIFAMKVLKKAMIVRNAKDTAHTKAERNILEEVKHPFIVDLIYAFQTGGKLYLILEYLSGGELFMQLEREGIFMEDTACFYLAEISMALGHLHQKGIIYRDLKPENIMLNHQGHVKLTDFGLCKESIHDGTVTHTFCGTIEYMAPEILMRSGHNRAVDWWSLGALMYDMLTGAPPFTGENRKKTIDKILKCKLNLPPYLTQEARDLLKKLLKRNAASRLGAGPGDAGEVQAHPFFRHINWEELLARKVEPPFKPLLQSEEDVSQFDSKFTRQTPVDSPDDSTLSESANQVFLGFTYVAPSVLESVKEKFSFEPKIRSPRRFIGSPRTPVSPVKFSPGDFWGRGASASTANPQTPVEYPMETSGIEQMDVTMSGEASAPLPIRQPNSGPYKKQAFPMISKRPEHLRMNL
# UniProt Q9NYL2, sequence (whole entry, looked up): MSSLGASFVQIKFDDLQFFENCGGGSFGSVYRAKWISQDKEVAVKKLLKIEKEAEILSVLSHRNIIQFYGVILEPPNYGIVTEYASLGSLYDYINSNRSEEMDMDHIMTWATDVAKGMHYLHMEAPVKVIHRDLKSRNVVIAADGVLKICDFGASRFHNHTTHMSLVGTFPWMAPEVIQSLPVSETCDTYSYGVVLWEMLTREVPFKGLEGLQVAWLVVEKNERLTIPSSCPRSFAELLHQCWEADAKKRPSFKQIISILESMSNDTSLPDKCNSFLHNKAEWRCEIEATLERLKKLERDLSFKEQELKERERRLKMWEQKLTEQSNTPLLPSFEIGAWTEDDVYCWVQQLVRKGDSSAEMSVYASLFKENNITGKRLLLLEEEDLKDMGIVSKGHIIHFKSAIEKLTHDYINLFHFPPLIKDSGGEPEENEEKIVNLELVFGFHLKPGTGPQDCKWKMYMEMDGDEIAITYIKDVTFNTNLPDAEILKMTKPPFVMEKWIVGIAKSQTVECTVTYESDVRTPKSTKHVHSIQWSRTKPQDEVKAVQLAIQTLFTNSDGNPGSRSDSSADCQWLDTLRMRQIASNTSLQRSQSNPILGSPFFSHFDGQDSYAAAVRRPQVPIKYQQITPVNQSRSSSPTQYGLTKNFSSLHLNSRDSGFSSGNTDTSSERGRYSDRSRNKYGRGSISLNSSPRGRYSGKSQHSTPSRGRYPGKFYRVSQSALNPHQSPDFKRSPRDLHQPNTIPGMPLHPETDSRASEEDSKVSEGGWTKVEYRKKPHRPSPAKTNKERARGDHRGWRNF
# UniProt P36507, sequence (whole entry, looked up): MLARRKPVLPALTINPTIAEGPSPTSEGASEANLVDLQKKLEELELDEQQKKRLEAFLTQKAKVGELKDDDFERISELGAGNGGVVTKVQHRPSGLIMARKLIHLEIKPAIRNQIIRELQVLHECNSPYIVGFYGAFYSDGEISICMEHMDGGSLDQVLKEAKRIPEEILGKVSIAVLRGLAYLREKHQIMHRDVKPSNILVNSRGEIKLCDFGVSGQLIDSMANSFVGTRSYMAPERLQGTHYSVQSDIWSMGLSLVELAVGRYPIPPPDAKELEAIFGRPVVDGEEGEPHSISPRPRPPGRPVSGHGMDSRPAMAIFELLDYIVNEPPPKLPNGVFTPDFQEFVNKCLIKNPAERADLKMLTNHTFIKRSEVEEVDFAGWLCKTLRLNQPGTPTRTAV
# UniProt O75676, sequence (whole entry, looked up): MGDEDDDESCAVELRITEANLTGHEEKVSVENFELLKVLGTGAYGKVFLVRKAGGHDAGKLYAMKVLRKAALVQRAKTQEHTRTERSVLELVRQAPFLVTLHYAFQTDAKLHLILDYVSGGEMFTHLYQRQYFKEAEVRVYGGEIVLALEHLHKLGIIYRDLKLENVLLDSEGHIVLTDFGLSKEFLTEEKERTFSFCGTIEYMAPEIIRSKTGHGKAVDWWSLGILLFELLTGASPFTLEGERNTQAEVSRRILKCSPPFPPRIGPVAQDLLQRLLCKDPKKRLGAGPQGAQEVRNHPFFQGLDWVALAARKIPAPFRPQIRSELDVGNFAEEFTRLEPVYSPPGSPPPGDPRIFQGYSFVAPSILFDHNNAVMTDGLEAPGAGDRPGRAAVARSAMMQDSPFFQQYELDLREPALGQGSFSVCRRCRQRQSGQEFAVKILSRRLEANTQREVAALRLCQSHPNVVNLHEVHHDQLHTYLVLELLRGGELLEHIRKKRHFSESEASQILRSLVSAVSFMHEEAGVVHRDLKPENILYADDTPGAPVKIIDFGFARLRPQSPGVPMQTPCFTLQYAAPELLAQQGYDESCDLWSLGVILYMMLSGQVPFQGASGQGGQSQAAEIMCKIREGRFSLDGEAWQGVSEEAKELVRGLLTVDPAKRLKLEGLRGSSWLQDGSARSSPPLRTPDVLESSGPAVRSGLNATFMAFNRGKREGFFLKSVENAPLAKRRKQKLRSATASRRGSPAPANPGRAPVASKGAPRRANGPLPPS

# Series 1
# SMILES: C[C@@H]1CN(c2ccc(-c3cc(C(=O)NCCOCCOCCOCCOCCOCCOCCNC(=O)/C=C/c4[nH]cc(C(=O)N[C@@H](CC(N)=O)c5ccc(F)c(Cl)c5)c4-c4ccc(Cl)cc4F)ccc3F)cc2NC(=O)c2ccc(F)cc2C(F)(F)F)C[C@H](C)N1C
# Effect on: thermal unfolding
# Method: differential scanning fluorimetry
# Tested at: 5.5 µM
# Direction: higher = more unfolded
# DCAF1: DDB1- and CUL4-associated factor 1 (DCAF1, Homo sapiens, UniProt Q9Y4B6)
# UniProt Q9Y4B6, sequence (whole entry, looked up): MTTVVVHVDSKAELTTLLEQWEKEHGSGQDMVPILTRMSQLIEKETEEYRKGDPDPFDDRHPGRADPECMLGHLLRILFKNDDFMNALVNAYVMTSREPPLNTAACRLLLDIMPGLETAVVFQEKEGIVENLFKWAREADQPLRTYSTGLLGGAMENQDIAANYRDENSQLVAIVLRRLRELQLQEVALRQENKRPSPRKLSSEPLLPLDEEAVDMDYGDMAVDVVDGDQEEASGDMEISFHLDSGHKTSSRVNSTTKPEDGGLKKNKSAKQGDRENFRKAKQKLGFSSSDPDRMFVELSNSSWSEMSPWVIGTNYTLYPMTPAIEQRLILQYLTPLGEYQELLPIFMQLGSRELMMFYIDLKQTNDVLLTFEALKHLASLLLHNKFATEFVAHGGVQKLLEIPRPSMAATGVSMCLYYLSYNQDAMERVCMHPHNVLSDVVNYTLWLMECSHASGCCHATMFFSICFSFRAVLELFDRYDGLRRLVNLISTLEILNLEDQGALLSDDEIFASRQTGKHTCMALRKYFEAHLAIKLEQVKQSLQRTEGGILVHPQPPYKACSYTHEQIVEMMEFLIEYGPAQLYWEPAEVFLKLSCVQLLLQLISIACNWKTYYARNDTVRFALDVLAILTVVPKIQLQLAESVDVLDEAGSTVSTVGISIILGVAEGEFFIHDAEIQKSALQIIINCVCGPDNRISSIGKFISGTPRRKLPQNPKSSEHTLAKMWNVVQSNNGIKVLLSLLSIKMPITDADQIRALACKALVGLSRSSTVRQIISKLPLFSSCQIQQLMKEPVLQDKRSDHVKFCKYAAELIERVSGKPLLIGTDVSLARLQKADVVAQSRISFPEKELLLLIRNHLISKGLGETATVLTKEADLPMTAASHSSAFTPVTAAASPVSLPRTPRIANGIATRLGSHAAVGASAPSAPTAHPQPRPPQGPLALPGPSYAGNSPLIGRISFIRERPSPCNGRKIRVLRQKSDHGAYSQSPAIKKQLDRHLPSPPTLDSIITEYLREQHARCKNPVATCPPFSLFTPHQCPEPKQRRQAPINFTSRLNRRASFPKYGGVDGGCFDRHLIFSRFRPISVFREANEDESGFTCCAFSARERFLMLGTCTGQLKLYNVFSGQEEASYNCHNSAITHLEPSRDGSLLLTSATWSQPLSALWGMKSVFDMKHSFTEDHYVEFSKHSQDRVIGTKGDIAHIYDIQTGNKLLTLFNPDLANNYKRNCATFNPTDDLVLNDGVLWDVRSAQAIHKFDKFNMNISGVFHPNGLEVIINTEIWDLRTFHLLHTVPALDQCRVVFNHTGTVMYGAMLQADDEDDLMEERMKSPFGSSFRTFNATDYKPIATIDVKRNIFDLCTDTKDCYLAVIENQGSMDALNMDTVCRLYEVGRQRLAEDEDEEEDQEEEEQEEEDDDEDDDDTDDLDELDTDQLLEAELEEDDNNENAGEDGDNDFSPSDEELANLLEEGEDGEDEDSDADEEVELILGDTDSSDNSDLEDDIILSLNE
# WDR5: WD repeat-containing protein 5 (WDR5, Homo sapiens, UniProt P61964)
target,temperature,SYPRO Orange fluorescence [a.u.]
DCAF1,68.61 °C,49700
WDR5,64.01 °C,15600
DCAF1,59.21 °C,44000
WDR5,32.6 °C,13800
WDR5,41.2 °C,14300
DCAF1,60.61 °C,49200
DCAF1,69.21 °C,49100
DCAF1,62.81 °C,53700
DCAF1,32.6 °C,9160
WDR5,25.8 °C,13200
WDR5,89.01 °C,56400

# Series 2
# Compound: CCN1/C(=C/C=C2\CCCC(/C=C/C3=[N+](CC)c4ccccc4C3(C)C)=C2NCCCCCCCCN2CCC(Nc3nc4ccccc4n3Cc3ccc(F)cc3)CC2)C(C)(C)c2ccccc21
# Cell line: U-87 MG
# Tested at: concentration not given
# Relative to: DMSO
measured,log2 fold change
BAG3 mRNA,1.15
SUOX mRNA,-0.825
SLC45A4 mRNA,1.21
AMPD3 mRNA,2.54
DEDD2 mRNA,1.87
SRFBP1 mRNA,0.978
EXOC6B mRNA,1.21
DNAJB6 mRNA,0.82
MSX1 mRNA,1.48
GOSR2 mRNA,1.1
RCAN2 mRNA,-2.25
JRK,-1.64
BUB1B mRNA,-2.02
EHD3 mRNA,-0.864
NFKB1 mRNA,0.965
MAD2L1 mRNA,-1.81

# Series 3
# Structure (SMILES): CCC1(c2cccc(-c3cn(C)nc3C)c2)C2=C(Nc3n[nH]cc31)C(F)C(C)(C)CC2=O (single isomer, unassigned)
# Tested at: 1 µM
target,effect on,method,relative to,remaining binding [%]
"Mitogen-activated protein kinase kinase kinase 20 (MAP3K20, Homo sapiens, UniProt Q9NYL2)",binding,competition with immobilised ligand,,100
"Tyrosine-protein kinase receptor TYRO3 (TYRO3, Homo sapiens, UniProt Q06418)",kinase binding,KINOMEscan,DMSO control,99
"Testis-specific serine/threonine-protein kinase 3 (TSSK3, Homo sapiens, UniProt Q96PN8)",kinase binding,KINOMEscan,DMSO control,100
"Ribosomal protein S6 kinase beta-1 (RPS6KB1, Homo sapiens, UniProt P23443)",kinase binding,KINOMEscan,DMSO control,72
"Cyclin-dependent kinase 2 (CDK2, Homo sapiens, UniProt P24941)",kinase binding,KINOMEscan,DMSO control,100
"Serine/threonine-protein kinase 26 (STK26, Homo sapiens, UniProt Q9P289)",kinase binding,KINOMEscan,DMSO control,100
"Serine/threonine-protein kinase 38-like (STK38L, Homo sapiens, UniProt Q9Y2H1)",binding,competition with immobilised ligand,,98
"Inhibitor of nuclear factor kappa-B kinase subunit beta (IKBKB, Homo sapiens, UniProt O14920)",kinase binding,KINOMEscan,DMSO control,91
"Cytoplasmic tyrosine-protein kinase BMX (BMX, Homo sapiens, UniProt P51813)",binding,competition with immobilised ligand,,100
"MAP/microtubule affinity-regulating kinase 3 (MARK3, Homo sapiens, UniProt P27448)",binding,competition with immobilised ligand,,97
"Tyrosine-protein kinase ABL1, phosphorylated (ABL1, Homo sapiens, UniProt P00519, M351T)",binding,competition with immobilised ligand,,100
"Protein kinase C iota type (PRKCI, Homo sapiens, UniProt P41743)",kinase binding,KINOMEscan,DMSO control,100
"Epidermal growth factor receptor (EGFR, Homo sapiens, UniProt P00533, T790M)",kinase binding,KINOMEscan,DMSO control,100
"Ribosomal protein S6 kinase alpha-4, N-terminal kinase domain (RPS6KA4, Homo sapiens, UniProt O75676)",kinase binding,KINOMEscan,DMSO control,93
"Aurora kinase A (AURKA, Homo sapiens, UniProt O14965)",binding,competition with immobilised ligand,,100
"TGF-beta receptor type-1 (TGFBR1, Homo sapiens, UniProt P36897)",binding,competition with immobilised ligand,,100
"Dual specificity mitogen-activated protein kinase kinase 2 (MAP2K2, Homo sapiens, UniProt P36507)",binding,competition with immobilised ligand,,91
"Myosin light chain kinase (MYLK3, Homo sapiens, UniProt Q32MK0)",kinase binding,KINOMEscan,DMSO control,100

# Mixed results
# PKMYT1: Membrane-associated tyrosine- and threonine-specific cdc2-inhibitory kinase (PKMYT1, Homo sapiens, UniProt Q99640)
# UniProt Q99640, sequence (whole entry, looked up): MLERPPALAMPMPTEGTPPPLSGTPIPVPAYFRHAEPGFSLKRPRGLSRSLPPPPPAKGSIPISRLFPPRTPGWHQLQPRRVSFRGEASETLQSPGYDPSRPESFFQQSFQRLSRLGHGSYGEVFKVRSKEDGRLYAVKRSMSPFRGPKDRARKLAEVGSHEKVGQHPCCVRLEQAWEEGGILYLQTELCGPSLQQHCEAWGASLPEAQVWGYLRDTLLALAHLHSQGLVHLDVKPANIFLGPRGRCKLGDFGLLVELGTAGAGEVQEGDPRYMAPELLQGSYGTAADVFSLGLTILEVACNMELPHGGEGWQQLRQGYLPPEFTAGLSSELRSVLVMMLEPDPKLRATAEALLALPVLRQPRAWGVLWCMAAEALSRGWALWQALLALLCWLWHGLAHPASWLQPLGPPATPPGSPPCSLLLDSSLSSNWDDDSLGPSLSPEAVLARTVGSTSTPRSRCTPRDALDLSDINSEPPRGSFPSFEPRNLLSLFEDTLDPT
SMILES,tested on,test,system,setting,endpoint,value
Cc1ccc(O)c(C)c1-c1cnc2[nH]c(-c3cnc(N4CCC5(CC4)CC(N4CCN(c6ccc(NC7CCC(=O)NC7=O)cc6F)CC4)CO5)nc3)cc2c1C#N (stereo not shown),PKMYT1,degrader,HuCCT-1,,DC50,0.7 nM
Cc1ccc(O)c(C)c1-c1cnc2[nH]c(-c3cnc(N4CCC(CN5CCN(c6cc7c(cc6F)c(N6CCC(=O)NC6=O)nn7C)CC5)CC4)nc3)cc2c1C#N,,,"female CD-1 mouse, plasma","oral, 20 mg/kg",Cmax,1580 ng/mL
Cc1ccc(O)c(C)c1-c1cnc2[nH]c(-c3cnc(N4CCC(CN5CCN(c6cc7c(cc6F)n(C6CCC(=O)NC6=O)c(=O)n7C)CC5)CC4)nc3)cc2c1C#N (stereo not shown),,,"female CD-1 mouse, plasma","oral, 20 mg/kg",Cmax,702 ng/mL
Cc1ccc(O)c(C)c1-c1cnc2[nH]c(-c3cnc(N4CCC(CN5CCN(c6c(F)cc(NC7CCC(=O)NC7=O)cc6F)CC5)CC4)nc3)cc2c1C#N (racemic),PKMYT1,"binding, HTRF",,,IC50,14.4 nM

# For quick reference, copied from above (mixed results):
SMILES,tested on,test,system,setting,endpoint,value
Cc1ccc(O)c(C)c1-c1cnc2[nH]c(-c3cnc(N4CCC5(CC4)CC(N4CCN(c6ccc(NC7CCC(=O)NC7=O)cc6F)CC4)CO5)nc3)cc2c1C#N (stereo not shown),PKMYT1,degrader,HuCCT-1,,DC50,0.7 nM
Cc1ccc(O)c(C)c1-c1cnc2[nH]c(-c3cnc(N4CCC(CN5CCN(c6cc7c(cc6F)c(N6CCC(=O)NC6=O)nn7C)CC5)CC4)nc3)cc2c1C#N,,,"female CD-1 mouse, plasma","oral, 20 mg/kg",Cmax,1580 ng/mL
Cc1ccc(O)c(C)c1-c1cnc2[nH]c(-c3cnc(N4CCC(CN5CCN(c6cc7c(cc6F)n(C6CCC(=O)NC6=O)c(=O)n7C)CC5)CC4)nc3)cc2c1C#N (stereo not shown),,,"female CD-1 mouse, plasma","oral, 20 mg/kg",Cmax,702 ng/mL
Cc1ccc(O)c(C)c1-c1cnc2[nH]c(-c3cnc(N4CCC(CN5CCN(c6c(F)cc(NC7CCC(=O)NC7=O)cc6F)CC5)CC4)nc3)cc2c1C#N (racemic),PKMYT1,"binding, HTRF",,,IC50,14.4 nM
